Published values collected from several papers.
Each line is one published result; not all experiments were run side by side. Numbers after ± are the reported error.
Substance-P receptor: Substance-P receptor (Cavia porcellus, UniProt P30547)
Chain of UniProt P30547 (whole entry, looked up): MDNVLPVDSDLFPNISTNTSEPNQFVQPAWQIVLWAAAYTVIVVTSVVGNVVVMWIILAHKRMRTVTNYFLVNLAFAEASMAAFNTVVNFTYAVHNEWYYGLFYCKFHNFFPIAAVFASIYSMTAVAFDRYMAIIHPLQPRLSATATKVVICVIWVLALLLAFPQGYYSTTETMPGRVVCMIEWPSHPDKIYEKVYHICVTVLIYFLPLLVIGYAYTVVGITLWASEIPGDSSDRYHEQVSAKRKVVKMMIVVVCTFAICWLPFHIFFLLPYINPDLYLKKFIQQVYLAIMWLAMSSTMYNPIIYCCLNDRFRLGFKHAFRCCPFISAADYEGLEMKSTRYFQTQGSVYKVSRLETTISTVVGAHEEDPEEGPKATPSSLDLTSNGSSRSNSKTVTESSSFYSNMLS
gpmI: 2,3-bisphosphoglycerate-independent phosphoglycerate mutase (gpmI, Mycoplasma pneumoniae, UniProt P75167)
Chain of UniProt P75167 (whole entry, looked up): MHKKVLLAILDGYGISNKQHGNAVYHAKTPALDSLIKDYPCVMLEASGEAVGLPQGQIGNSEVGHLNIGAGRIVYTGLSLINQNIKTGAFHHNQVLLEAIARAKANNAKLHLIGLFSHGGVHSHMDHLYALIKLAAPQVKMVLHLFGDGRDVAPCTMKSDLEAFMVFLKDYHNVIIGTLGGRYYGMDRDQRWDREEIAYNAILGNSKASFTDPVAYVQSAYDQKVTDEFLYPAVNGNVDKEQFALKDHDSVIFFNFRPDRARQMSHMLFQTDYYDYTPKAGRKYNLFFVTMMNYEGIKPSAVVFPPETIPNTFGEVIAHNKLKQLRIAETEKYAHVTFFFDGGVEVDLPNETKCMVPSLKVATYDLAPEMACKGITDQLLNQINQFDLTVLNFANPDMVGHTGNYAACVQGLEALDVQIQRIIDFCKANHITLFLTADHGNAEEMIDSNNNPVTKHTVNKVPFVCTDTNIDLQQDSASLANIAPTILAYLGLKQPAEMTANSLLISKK
Melanocortin receptor 3: Melanocortin receptor 3 (Mus musculus, UniProt P33033)
Chain of UniProt P33033 (whole entry, looked up): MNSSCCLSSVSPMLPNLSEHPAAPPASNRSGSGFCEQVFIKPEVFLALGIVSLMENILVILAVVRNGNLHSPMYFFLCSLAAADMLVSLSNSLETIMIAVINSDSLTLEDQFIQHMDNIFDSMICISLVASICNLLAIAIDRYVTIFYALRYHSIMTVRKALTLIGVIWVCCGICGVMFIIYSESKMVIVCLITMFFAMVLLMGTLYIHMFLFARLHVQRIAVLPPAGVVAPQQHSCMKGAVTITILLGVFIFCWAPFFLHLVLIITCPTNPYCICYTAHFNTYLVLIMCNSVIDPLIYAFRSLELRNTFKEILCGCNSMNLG
Chain of UniProt P02750 (whole entry, looked up): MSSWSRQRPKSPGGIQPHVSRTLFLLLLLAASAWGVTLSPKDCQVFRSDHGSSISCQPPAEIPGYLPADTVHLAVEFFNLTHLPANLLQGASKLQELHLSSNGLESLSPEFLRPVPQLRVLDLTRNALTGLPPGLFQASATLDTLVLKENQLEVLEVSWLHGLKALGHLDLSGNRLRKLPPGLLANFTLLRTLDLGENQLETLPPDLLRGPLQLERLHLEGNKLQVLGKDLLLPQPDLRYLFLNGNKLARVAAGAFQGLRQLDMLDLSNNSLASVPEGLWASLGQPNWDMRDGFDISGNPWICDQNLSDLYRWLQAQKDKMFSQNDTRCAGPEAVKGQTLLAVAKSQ
Chain of UniProt P21729 (whole entry, looked up): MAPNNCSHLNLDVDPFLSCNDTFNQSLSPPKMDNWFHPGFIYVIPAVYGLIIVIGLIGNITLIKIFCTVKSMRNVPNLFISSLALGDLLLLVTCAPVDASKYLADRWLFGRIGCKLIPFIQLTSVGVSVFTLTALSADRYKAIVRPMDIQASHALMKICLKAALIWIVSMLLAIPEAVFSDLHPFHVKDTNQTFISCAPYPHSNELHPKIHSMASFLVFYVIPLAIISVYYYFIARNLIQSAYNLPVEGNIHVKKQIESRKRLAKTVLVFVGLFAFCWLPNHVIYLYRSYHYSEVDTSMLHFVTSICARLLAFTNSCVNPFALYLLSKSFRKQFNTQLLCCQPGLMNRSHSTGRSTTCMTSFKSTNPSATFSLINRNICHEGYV
Chain of UniProt P54764 (whole entry, looked up): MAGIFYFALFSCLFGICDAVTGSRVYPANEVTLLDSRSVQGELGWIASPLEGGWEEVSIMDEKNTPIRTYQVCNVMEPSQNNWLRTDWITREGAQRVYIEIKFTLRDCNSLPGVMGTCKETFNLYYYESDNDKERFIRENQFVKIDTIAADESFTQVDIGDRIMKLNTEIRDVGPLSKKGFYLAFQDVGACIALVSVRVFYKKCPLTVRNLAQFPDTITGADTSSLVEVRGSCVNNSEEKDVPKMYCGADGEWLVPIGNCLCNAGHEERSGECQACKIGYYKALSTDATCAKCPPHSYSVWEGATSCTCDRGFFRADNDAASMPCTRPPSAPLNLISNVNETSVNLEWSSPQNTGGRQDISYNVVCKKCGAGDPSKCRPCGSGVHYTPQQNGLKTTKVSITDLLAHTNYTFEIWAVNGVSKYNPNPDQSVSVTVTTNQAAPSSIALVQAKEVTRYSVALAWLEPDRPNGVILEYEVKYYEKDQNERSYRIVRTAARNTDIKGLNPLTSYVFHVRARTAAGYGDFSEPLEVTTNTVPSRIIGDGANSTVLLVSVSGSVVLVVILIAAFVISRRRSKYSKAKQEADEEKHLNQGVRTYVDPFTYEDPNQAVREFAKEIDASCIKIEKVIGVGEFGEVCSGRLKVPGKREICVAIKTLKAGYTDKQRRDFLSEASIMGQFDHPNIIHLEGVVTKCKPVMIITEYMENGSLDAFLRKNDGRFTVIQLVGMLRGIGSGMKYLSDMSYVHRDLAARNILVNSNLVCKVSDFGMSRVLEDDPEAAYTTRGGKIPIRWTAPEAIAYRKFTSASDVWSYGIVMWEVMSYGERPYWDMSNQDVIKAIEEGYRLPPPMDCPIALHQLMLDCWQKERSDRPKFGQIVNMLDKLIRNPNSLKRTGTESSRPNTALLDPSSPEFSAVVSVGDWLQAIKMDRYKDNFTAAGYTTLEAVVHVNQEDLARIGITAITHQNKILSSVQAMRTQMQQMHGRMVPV
Chain of UniProt P41149 (whole entry, unmodified, looked up): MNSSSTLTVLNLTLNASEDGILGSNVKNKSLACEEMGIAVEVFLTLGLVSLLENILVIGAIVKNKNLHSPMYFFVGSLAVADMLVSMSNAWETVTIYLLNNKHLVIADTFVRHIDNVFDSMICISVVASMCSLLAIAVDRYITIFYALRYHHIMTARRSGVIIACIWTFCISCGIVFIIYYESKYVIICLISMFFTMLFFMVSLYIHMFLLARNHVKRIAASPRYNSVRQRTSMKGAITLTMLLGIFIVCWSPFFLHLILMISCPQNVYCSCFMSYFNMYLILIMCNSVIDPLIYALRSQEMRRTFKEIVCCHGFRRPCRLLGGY

With `Cl.Cl.Cl.Cl.Cl.Cl.Cl.Cl.Cl.Cl.Cl.Cl.NC[C@@H]1O[C@H](O[C@H]2[C@@H](O)[C@H](O[C@@H]3[C@@H](O)[C@H](N)C[C@H](N)[C@H]3O[C@H]3O[C@H](CN)[C@@H](O)[C@H](O)[C@H]3N)O[C@@H]2Cn2cc(COCCCCCCCCOCc3cn(C[C@H]4O[C@@H](O[C@@H]5[C@@H](O)[C@H](N)C[C@H](N)[C@H]5O[C@H]5O[C@H](CN)[C@@H](O)[C@H](O)[C@H]5N)[C@H](O)[C@@H]4O[C@H]4O[C@@H](CN)[C@@H](O)[C@H](O)[C@H]4N)nn3)nn2)[C@H](N)[C@@H](O)[C@@H]1O` the binding constant was 7.58e+06 M⁻¹ (HIV-1 TAR RNA; RNA binding, ethidium bromide displacement; pH 6.8, TAR RNA 200 nM per strand, with: ethidium bromide 5 µM).
With `CSCC[C@H](NC(=O)[C@H](CC(C)C)NC(=O)[C@H](Cc1c[nH]cn1)NC(=O)CNC(=O)[C@@H](NC(=O)[C@H](C)NC(=O)[C@H](Cc1c[nH]c2ccccc12)NC(=O)[C@H](CCC(N)=O)NC(=O)CCCCCNC(=O)CNC(=O)CNC(=O)CNC(=O)CSC(C)=O)C(C)C)C(N)=O` [technetium-99m labelled] the tissue uptake was 1.64 ± 0.22 %ID/g (Swiss mouse, blood; intravenous, 18.5 MBq, 5 min).
For `CN[C@](C)(C[18F])C(=O)O`, the tracer uptake was 5.1 %ID/g (MDA-MB-468 tumour model; host not given, liver; 15 min, tumour-bearing).
`CCCC[C@H](NC(=O)[C@H](Cc1ccccc1)NC(=O)CNC(=O)[C@@H](C)NC(=O)[C@@H](N)Cc1ccc(O)cc1)C(=O)N1CCC[C@H]1C(=O)N[C@@H](CO[C@@H]1O[C@H](CO)[C@@H](O)[C@H](O)[C@H]1O)C(=O)N[C@@H](Cc1c[nH]c2ccccc12)C(=O)NCc1cc(C(F)(F)F)cc(C(F)(F)F)c1` has a Kb of 1.8 nM (Substance-P receptor; tissue contraction, antagonist).
With `CC[C@H](C)[C@H](NC(=O)[C@H](CCCNC(=N)N)NC(=O)[C@H](Cc1c[nH]cn1)NC(=O)[C@H](CCCCN)NC(=O)[C@H](C)NC(=O)[C@H](CO)NC(=O)[C@H](Cc1ccc(O)cc1)NC(=O)[C@H](CO)NC(=O)[C@H](CCC(=O)O)NC(=O)CNC(=O)CNC(=O)CCC(=O)Nc1cccc2c1CN(C1CCC(=O)NC1=O)C2=O)C(=O)N[C@@H](CCSC)C(=O)N[C@@H](CC(C)C)C(=O)N[C@H](C(=O)O)[C@@H](C)O` (stereo partly drawn) the DC50 was 8.38 µM (Leucine-rich alpha-2-glycoprotein (LRG1, Homo sapiens, UniProt P02750); degrader, Western blot; HK-2; 12 h).
The AC50 of `COc1ccc(C[C@@H]2NC(=O)[C@H](C)NC(=O)[C@H](Cc3ccc(O)cc3)NC(=O)[C@H](CO)NC(=O)[C@H](CC(=O)O)NC(=O)[C@@H](Cc3ccc(O)cc3)NC(=O)CSC[C@@H](C(N)=O)NC(=O)[C@H](Cc3c[nH]c4ccccc34)NC(=O)[C@H](Cc3ccc(O)cc3)NC(=O)[C@H](Cc3c[nH]cn3)NC(=O)[C@H](CC(N)=O)NC(=O)[C@H](Cc3ccc(O)cc3)NC(=O)CNC(=O)[C@H](CC(N)=O)NC(=O)[C@H](Cc3ccccc3)NC(=O)[C@H](Cc3ccc(O)cc3)NC2=O)cc1` is reported as over 10 µM (gpmI; biochemical).
The tissue uptake of `CCCNC(=O)[C@H](CC(C)C)NC(=O)[C@H](Cc1c[nH]cn1)NC(=O)CNC(=O)[C@@H](NC(=O)[C@H](C)NC(=O)[C@H](Cc1c[nH]c2ccccc12)NC(=O)[C@H](CCC(N)=O)NC(=O)[C@@H](Cc1ccccc1)NC(=O)CCCCCNC(=O)CN1CCN(CC(=O)O)CCN(CC(=O)O)CCN(CC(=O)O)CC1)C(C)C` [indium-111 labelled] is reported as 0.13 ± 0.03 %ID/g (Gastrin-releasing peptide receptor (Mus musculus, UniProt P21729); CF-1 mice, large intestine; intravenous, dose not given, 1 h, with: bombesin 100 µg (blocking)).
The tissue uptake of `N=C(N)NCCC[C@@H]1NC(=O)[C@H](CCCCNC(=O)CC[C@H](NC(=O)CCOCCOCCOCCOCCNC(=O)CC[C@H](NC(=O)CN2CCN(CC(=O)O)CCN(CC(=O)O)CCN(CC(=O)O)CC2)C(=O)NCCOCCOCCOCCOCCC(=O)N[C@@H](CCC(=O)NCCCC[C@@H]2NC(=O)[C@@H](Cc3ccccc3)NC(=O)[C@H](CC(=O)O)NC(=O)CNC(=O)[C@H](CCCNC(=N)N)NC2=O)C(=O)NCCCC[C@@H]2NC(=O)[C@@H](Cc3ccccc3)NC(=O)[C@H](CC(=O)O)NC(=O)CNC(=O)[C@H](CCCNC(=N)N)NC2=O)C(=O)NCCCC[C@@H]2NC(=O)[C@@H](Cc3ccccc3)NC(=O)[C@H](CC(=O)O)NC(=O)CNC(=O)[C@H](CCCNC(=N)N)NC2=O)NC(=O)[C@@H](Cc2ccccc2)NC(=O)[C@H](CC(=O)O)NC(=O)CNC1=O` [indium-111 labelled] is reported as 1.89 ± 0.37 %ID/g (female athymic nude mice, bone; intravenous, 3 µCi, 0.5 h, U-87 MG glioma xenograft).
For `COc1ccc(C[C@H]2C(=O)N(C)[C@@H](Cc3ccc(O)cc3)C(=O)N(C)[C@@H](Cc3ccccc3)C(=O)N[C@@H](CC(N)=O)C(=O)NCC(=O)N(C)[C@@H](Cc3ccc(O)cc3)C(=O)N[C@@H](CC(N)=O)C(=O)N[C@@H](Cc3c[nH]cn3)C(=O)N[C@@H](Cc3ccc(O)cc3)C(=O)N[C@@H](Cc3c[nH]c4ccccc34)C(=O)N[C@H](C(N)=O)CSCC(=O)N[C@H](Cc3ccc(O)cc3)C(=O)N[C@@H](CC(=O)O)C(=O)N[C@@H](CO)C(=O)N[C@@H](Cc3ccc(O)cc3)C(=O)N[C@@H](C)C(=O)N2C)cc1`, the AC50 was 1.2 µM (gpmI; biochemical).
`CC(=O)N[C@@H](CCCNC(=N)N)C(=O)N[C@@H](CCCNC(=N)N)C(=O)N[C@@H](C(=O)N1Cc2ccccc2C[C@H]1C(N)=O)[C@@H](c1ccccc1)c1c[nH]c2ccccc12` has an EC50 of 800 nM (Melanocortin receptor 3; cAMP, agonist, AlphaScreen).
With `CCCC[C@H](NC(=O)[C@H](Cc1ccccc1)NC(=O)CNC(=O)[C@@H](C)NC(=O)[C@@H](N)Cc1ccc(O)cc1)C(=O)N[C@@H](CO[C@@H]1O[C@H](CO)[C@@H](O)[C@H](O)[C@H]1O)C(=O)N[C@@H](CC(C)C)C(=O)N[C@@H](Cc1c[nH]c2ccccc12)C(=O)NCc1cc(C(F)(F)F)cc(C(F)(F)F)c1` the Kb was 18 nM (Substance-P receptor; tissue contraction, antagonist).
`Cl.Cl.Cl.Cl.Cl.Cl.Cl.Cl.Cl.Cl.Cl.Cl.NC[C@@H]1O[C@H](O[C@H]2[C@@H](O)[C@H](O[C@@H]3[C@@H](O)[C@H](N)C[C@H](N)[C@H]3O[C@H]3O[C@H](CN)[C@@H](O)[C@H](O)[C@H]3N)O[C@@H]2Cn2cc(COCCCCCCCCCCCCOCc3cn(C[C@H]4O[C@@H](O[C@@H]5[C@@H](O)[C@H](N)C[C@H](N)[C@H]5O[C@H]5O[C@H](CN)[C@@H](O)[C@H](O)[C@H]5N)[C@H](O)[C@@H]4O[C@H]4O[C@@H](CN)[C@@H](O)[C@H](O)[C@H]4N)nn3)nn2)[C@H](N)[C@@H](O)[C@@H]1O` has a binding constant of 2.53e+07 M⁻¹ (HIV-1 TAR RNA; RNA binding, ethidium bromide displacement; pH 6.8, TAR RNA 200 nM per strand, with: ethidium bromide 5 µM).
`C[C@@H](O)[C@@H]1NC(=O)[C@H](CC(=O)O)NC(=O)[C@@H]2CCCN2C(=O)[C@H](Cc2ccc(O)cc2)NC(=O)CSC[C@@H](C(N)=O)NC(=O)[C@H](Cc2c[nH]cn2)NC(=O)[C@H](Cc2c[nH]c3ccccc23)NC(=O)[C@H](CCC(=O)O)NC(=O)[C@H](CC(=O)O)NC(=O)[C@H](Cc2ccc(O)cc2)NC(=O)[C@H](Cc2ccc(O)cc2)NC(=O)[C@H](Cc2c[nH]c3ccccc23)NC(=O)[C@H](Cc2c[nH]c3ccccc23)NC(=O)[C@H](CC(N)=O)NC1=O` has an AC50 of 3.8 µM (gpmI; biochemical).
`C[C@@H]1NC(=O)[C@H](CC(N)=O)N2C[C@H](Cc3c[nH]c4ccccc34)NC(=O)[C@H](CSCC2=O)NC(=O)[C@H](CCCNC(=N)N)NC(=O)[C@@H](Cc2ccccc2)NC(=O)[C@H](Cc2c[nH]cn2)NC(=O)[C@@H](NC(=O)[C@@H](N)Cc2ccc(O)cc2)CSSC[C@@H](C(=O)N[C@@H](Cc2ccc(O)cc2)C(N)=O)NC(=O)[C@H](Cc2ccccc2)NC1=O` gave an EC50 of 11.9 nM (Melanocortin receptor 5 (Mus musculus, UniProt P41149); reporter gene, agonist).
`CC(=O)N[C@@H](CCCNC(=N)N)C(=O)N[C@@H](CCCNC(=N)N)C(=O)N[C@H](Cc1ccc(I)cc1)C(=O)N[C@@H](C(N)=O)[C@H](c1ccccc1)c1c[nH]c2ccccc12` has an EC50 of 5700 nM (Melanocortin receptor 3; cAMP, agonist, AlphaScreen).
With `CC(C)[C@@H]1NC(=O)[C@H](CCC(N)=O)NC(=O)[C@@H](Cc2ccc(O)cc2)NC(=O)CSC[C@@H](C(N)=O)NC(=O)[C@H](CC(=O)O)NC(=O)[C@H](CCC(=O)O)NC(=O)[C@H](Cc2c[nH]c3ccccc23)NC(=O)[C@@H]2CCCN2C(=O)[C@H](CO)NC(=O)[C@H](C)NC(=O)[C@H](Cc2c[nH]c3ccccc23)NC(=O)[C@H](Cc2c[nH]c3ccccc23)NC(=O)[C@H](C(C)C)NC(=O)[C@H]([C@@H](C)O)NC1=O` the AC50 was 0.162 µM (gpmI; biochemical).
`CN(C)CC1CCCCC1(O)c1cccc(O)c1` (stereo not drawn): “Papp A to B” 6.7 ± 0.4 ×10⁻⁶ cm/s (Caco-2 TC7; 100 µM, 3 h, pH 6.8 apical, 7.4 basolateral).
`N=C(N)NCCC[C@@H]1NC(=O)[C@H](CCCCNC(=O)CC[C@H](NC(=O)CCOCCOCCOCCOCCNC(=O)CN2CCN(CC(=O)O)CCN(CC(=O)O)CCN(CC(=O)O)CC2)C(=O)NCCCC[C@@H]2NC(=O)[C@@H](Cc3ccccc3)NC(=O)[C@H](CC(=O)O)NC(=O)CNC(=O)[C@H](CCCNC(=N)N)NC2=O)NC(=O)[C@@H](Cc2ccccc2)NC(=O)[C@H](CC(=O)O)NC(=O)CNC1=O` [indium-111 labelled] has a tissue uptake of 3.01 ± 0.43 %ID/g (female athymic nude mice, lungs; intravenous, 3 µCi, 0.5 h, U-87 MG glioma xenograft).
`COc1ccc(C[C@H]2C(=O)N[C@@H](CC(N)=O)C(=O)N[C@@H](CC(=O)O)C(=O)N[C@@H](CO)C(=O)NCC(=O)N[C@@H](Cc3c[nH]c4ccccc34)C(=O)N(C)[C@@H](Cc3ccc(O)cc3)C(=O)N[C@@H](CC(N)=O)C(=O)N[C@@H]([C@@H](C)O)C(=O)N(C)[C@@H](Cc3ccccc3)C(=O)N[C@H](C(N)=O)CSCC(=O)N[C@@H](Cc3ccc(O)cc3)C(=O)N2C)cc1` has an AC50 of 45.7 µM (2,3-bisphosphoglycerate-independent phosphoglycerate mutase (Wuchereria bancrofti, UniProt B1P0R4); biochemical).
`Cc1cc(O)cc(C)c1C[C@H](N)C(=O)N[C@H](C)C(=O)NCC(=O)N[C@@H](Cc1ccc(Br)cc1)C(=O)N1CCC[C@H]1C(=O)N[C@@H](CC(C)C)C(=O)N[C@@H](Cc1c[nH]c2ccccc12)C(=O)NCc1cc(C(F)(F)F)cc(C(F)(F)F)c1` gave a Kb of 23 ± 8.9 nM (Substance-P receptor; antagonist; guinea pig ileum LMMP).
`CNC(=O)C1CCN(c2ccccc2NC(=O)c2ccc(-c3cc(O)ccc3C)c(C)n2)CC1` has a Ki of 0.38 nM (Ephrin type-A receptor 4 (EPHA4, Homo sapiens, UniProt P54764); enzyme activity, inhibitor).
